{"data": "Measured values collected from several papers", "organism": "Staphylococcus aureus"}
{"Structure (SMILES)": "CN(C)c1cc(CNCCC(C)(C)C)c(O)c2c1C[C@H]1C[C@H]3[C@H](N(C)C)C(O)=C(C(N)=O)C(=O)[C@@]3(O)C(O)=C1C2=O", "strain": "MRSA 5, Tet M", "medium": "50% human serum", "MIC": "16 µg/mL"}
{"Structure (SMILES)": "Oc1ccccc1C1Nc2ccccc2C2=[O+][Cu-2]3([Cl])[O]c4ccccc4C=[N+]3N21 (stereo not drawn)", "technique": "broth microdilution", "strain": "ATCC 29213", "time": "24 h", "temperature": "37 °C", "MIC": "32 µg/mL"}
{"Structure (SMILES)": "C=CCC1COC(=O)N1/N=C/c1ccc([N+](=O)[O-])o1 (stereo not drawn)", "effect on": "microbial growth", "technique": "broth dilution", "strain": "ATCC29213", "time": "18 h", "MIC": "> 50 µg/mL"}
{"Structure (SMILES)": "CCCCCCCCCCCCCCCCCCSCC1OC(OC2C(N)CC(N)C(OC3OC(CN)C(O)CC3N)C2O)C(O)C(N)C1O (stereo not drawn)", "strain": "methicillin-resistant", "MIC": "18.8 µg/mL"}
{"Structure (SMILES)": "CC(=NNC(=N)N)c1nnn(-c2ccc(C#CC3(O)CCCCC3)cc2)c1C", "effect on": "microbial growth", "strain": "ATCC43300 MRSA", "MIC": "3.9 µg/mL"}
{"Structure (SMILES)": "CN[C@H](CC(C)C)C(=O)N[C@H]1C(=O)N[C@@H](CC(N)=O)C(=O)N[C@H]2C(=O)N[C@H]3C(=O)N[C@H](C(=O)N[C@H](C(=O)O)c4cc(O)cc(O)c4-c4cc3ccc4O)[C@H](O)c3ccc(c(Cl)c3)Oc3cc2cc(c3O[C@@H]2O[C@H](CO)[C@@H](O)[C@H](O)[C@H]2O[C@H]2C[C@](C)(N)[C@H](O)[C@H](C)O2)Oc2ccc(cc2Cl)[C@H]1O", "effect on": "microbial growth", "technique": "broth dilution", "strain": "NCTC8325", "time": "20 h", "MIC": "1 µg/mL"}
{"Structure (SMILES)": "CC1CCN(Cc2cc(N(C)C)c3c(c2O)C(=O)C2=C(O)[C@]4(O)C(=O)C(C(N)=O)=C(O)[C@@H](N(C)C)[C@@H]4C[C@@H]2C3)CC1", "effect on": "microbial growth", "technique": "broth dilution", "MIC": "0.25 µg/mL"}
{"Structure (SMILES)": "O=C(CCc1cc(O)c(O)c(O)c1)NCCCCCCCCCC[P+](c1ccccc1)(c1ccccc1)c1ccccc1", "effect on": "microbial growth", "technique": "broth dilution", "strain": "ATCC43300 MRSA", "time": "18 h", "MIC": "< 0.25 µg/mL"}
{"Structure (SMILES)": "CN(C)c1cc(CN2CCOCC2)c(O)c2c1C[C@H]1C[C@H]3[C@H](N(C)C)C(O)=C(C(N)=O)C(=O)[C@@]3(O)C(O)=C1C2=O", "strain": "RN4250, Tet K efflux", "MIC": "2 µg/mL"}
{"Structure (SMILES)": "CCN(CC)CCCN1/C(=C/c2cc(C)[n+](C)c3ccccc23)Sc2ccccc21", "effect on": "microbial growth", "technique": "broth dilution", "strain": "ATCCBAA1720 MRSA", "MIC": "8 µg/mL"}
{"Structure (SMILES)": "CCCCCCCCCc1nc2cc(Cl)ccc2c(=O)n1O", "technique": "broth microdilution", "strain": "RN6390B", "MIC": "50 µM"}
{"Structure (SMILES)": "O=C(O)c1ccc(-n2cc(/C=N/Nc3ccc([N+](=O)[O-])cc3)c(-c3cccc(F)c3)n2)cc1", "effect on": "microbial growth", "strain": "ATCC25923", "MIC": "3.12 µg/mL"}
{"Structure (SMILES)": "NC[C@@H]1O[C@H](O[C@H]2[C@@H](O)[C@H](O[C@@H]3[C@@H](O)[C@H](N)C[C@H](N)[C@H]3O[C@H]3O[C@H](CO)[C@@H](OCCO)[C@H](O)[C@H]3N)O[C@@H]2CO)[C@H](N)[C@@H](O)[C@@H]1O", "technique": "broth microdilution", "strain": "MRSA isolate AG 042", "MIC": "16 to 32 µg/mL"}
{"Structure (SMILES)": "CNC(CC(C)C)C(=O)NC1C(=O)NC(CC(N)=O)C(=O)NC2C(=O)NC3C(=O)NC(C(=O)NC(C(=O)O)c4cc(O)cc(O)c4-c4cc3ccc4O)C(O)c3ccc(c(Cl)c3)Oc3cc2cc(c3OC2OC(CO)C(O)C(O)C2OC2CC(C)(NC(=O)CCCCCCCCC[N+](C)(C)Cc3ccccc3)C(O)C(C)O2)Oc2ccc(cc2Cl)C1O (stereo not drawn)", "technique": "agar dilution", "strain": "MRSA clinical isolate MRSA3", "MIC": "32 µg/mL"}
{"Structure (SMILES)": "COCCOC(=O)NCc1cc(N(C)C)c2c(c1O)C(=O)C1=C(O)[C@]3(O)C(=O)C(C(N)=O)=C(O)[C@@H](N(C)C)[C@@H]3C[C@@H]1C2", "strain": "RN4250, Tet K efflux", "MIC": "16 µg/mL"}
